Results collected from several papers.
Parts stem from different laboratories: compare values within a part only. Changes are numbered by the printed parent chain.

Study 1
Target: Ras GTPase-activating protein-binding protein 1, C-terminal RGG region (G3BP1, Homo sapiens, UniProt Q13283)
UniProt Q13283, sequence (whole entry, looked up): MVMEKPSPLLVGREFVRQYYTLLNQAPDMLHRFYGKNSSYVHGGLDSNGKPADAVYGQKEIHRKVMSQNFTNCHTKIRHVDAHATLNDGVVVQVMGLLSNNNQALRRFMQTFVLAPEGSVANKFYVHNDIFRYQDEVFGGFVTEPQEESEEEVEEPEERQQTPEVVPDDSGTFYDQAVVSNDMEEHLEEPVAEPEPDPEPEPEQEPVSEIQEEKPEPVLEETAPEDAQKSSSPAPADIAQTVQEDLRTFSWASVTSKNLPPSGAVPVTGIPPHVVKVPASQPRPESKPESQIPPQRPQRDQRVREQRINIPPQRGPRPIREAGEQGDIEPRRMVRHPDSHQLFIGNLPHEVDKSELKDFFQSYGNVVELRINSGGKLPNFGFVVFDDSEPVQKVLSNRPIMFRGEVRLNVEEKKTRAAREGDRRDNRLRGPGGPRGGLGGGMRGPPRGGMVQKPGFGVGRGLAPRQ
Method: RNA Bind-n-Seq
Form: RNA
Matrix: in vitro
Tested at: 1 µM
Notes: whole 134-nt RNA, ends assumed
Together with: 150 mM KCl
Relative to: input library
Direction: higher = stronger binding
Strand	log2 enrichment
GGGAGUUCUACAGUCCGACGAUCCUGUGCUACACAUCGUAUGUACCGAAUCGGGGUUUGGGGAAAAAAAGGGGUUUUUUUGGGGAAAGUAUUAUGUUACGCCGUUCGGAUCUGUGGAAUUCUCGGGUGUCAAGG	0.649
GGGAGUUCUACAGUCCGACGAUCUCCUGUGCUACACAUCGUAUGUACCGAAUCGGGGCCCCCCGGCCCCCCGGGCCCCCCGGGAAAGUAUUAUGUUACGCCGUUCGGAUCUGCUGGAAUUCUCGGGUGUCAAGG	-0.597
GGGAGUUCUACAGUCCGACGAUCUCCUGUGCUACACAUCGUAUGUACCGAAUCGGGUUUUUUGGGGUUUUUUGGUUUUUUGGGAAAGUAUUAUGUUACGCCGUUCGGAUCUGCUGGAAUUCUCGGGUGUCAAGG	-0.365
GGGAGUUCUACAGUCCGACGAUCCAAGUCCUGUGCUACACAUCGUAUGUACCGAAUCGGGAAAAAGGGAGGGUUUGGGAAAGUAUUAUGUUACGCCGUUCGGAUCUGCACUUCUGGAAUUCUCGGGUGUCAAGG	1.97
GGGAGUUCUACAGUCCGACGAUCGUCCUGUGCUACACAUCGUAUGUACCGAAUCGGGAAAAAAGGAAAAAAGGAAAAAAGGGAAAGUAUUAUGUUACGCCGUUCGGAUCUGCAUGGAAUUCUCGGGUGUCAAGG	-1.83
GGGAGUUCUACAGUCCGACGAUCUCAAGUCCUGUGCUACACAUCGUAUGUACCGAAUCGGUUUGGUUUUUUUGGAGGAAAGUAUUAUGUUACGCCGUUCGGAUCUGCACUUCCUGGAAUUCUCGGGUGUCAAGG	-1.11
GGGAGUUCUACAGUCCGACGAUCCAAGUCCUGUGCUACACAUCGUAUGUACCGAAUCGGGAAAAGGGAAAAGGAAAAGGAAAGUAUUAUGUUACGCCGUUCGGAUCUGCACUUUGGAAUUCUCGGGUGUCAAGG	-1.87
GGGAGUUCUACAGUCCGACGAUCCCCAUUCCAAGAUUUGCUGUUGGCAUUGUAAUAGGAAGAAAUGGAGAGAUGAUCAAAAAAAUACAAAAUGAUGCUGGUGUUCGCAUUCAGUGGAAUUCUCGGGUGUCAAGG	-1.24
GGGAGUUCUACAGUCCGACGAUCCUCAAGUCCUGUGCUACACAUCGUAUGUACCGAAUCGGAGGGGAGGGGAGGGGAAAGUAUUAUGUUACGCCGUUCGGAUCUGCACUUCCAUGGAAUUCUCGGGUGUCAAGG	1.28

Study 2
Target: CCNA1, cyclin fold, Cln2 fusion (human)
Method: yeast growth competition, sequencing
Matrix: yeast
Notes: weak parent motif
Relative to: not given
Direction: higher = stronger binding
Starting sequence: CDKN1A docking peptide (human); SKACRRLFGPVDS; partner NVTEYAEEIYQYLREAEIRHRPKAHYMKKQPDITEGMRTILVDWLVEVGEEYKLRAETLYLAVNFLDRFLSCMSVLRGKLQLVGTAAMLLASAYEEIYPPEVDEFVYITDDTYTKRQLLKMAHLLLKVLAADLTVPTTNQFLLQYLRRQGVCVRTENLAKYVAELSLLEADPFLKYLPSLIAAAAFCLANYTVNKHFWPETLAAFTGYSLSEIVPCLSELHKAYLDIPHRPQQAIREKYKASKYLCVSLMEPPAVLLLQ
Variant	normalised enrichment score
R5D	-0.566
R6V	0.19
A3C	0.782
V11M	0.411
G9N	0.551
A3V	0.515
K2H	0.342
D12A	0.231
G9M	0.715
A3M	0.367
C4T	0.524
P10W	0.122
R5Q	-0.163

Study 3
Target: Phosphate system positive regulatory protein PHO4, full length, GST-tagged (PHO4, Saccharomyces cerevisiae, UniProt P07270, residues 1-312)
Method: competition protein-binding microarray
Form: double-stranded DNA, one strand shown
Matrix: in vitro
Tested at: 2 µM
Notes: whole 60-bp probe, lowest competitor level
Together with: Cbf1 competitor, 0.05 µM
Direction: higher = stronger binding
Construct (chain): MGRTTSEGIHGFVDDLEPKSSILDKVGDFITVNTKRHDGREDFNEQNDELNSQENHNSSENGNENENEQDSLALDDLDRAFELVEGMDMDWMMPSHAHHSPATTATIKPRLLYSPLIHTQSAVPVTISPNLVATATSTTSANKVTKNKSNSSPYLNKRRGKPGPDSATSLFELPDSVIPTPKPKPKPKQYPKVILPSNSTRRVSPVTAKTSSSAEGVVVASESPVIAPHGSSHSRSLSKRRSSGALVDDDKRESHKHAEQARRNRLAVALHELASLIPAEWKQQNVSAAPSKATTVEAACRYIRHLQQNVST
Strand	fluorescence intensity [a.u.]
CTTTCCCGATCTTGTGCTGTGGGTGTAGCACATTTGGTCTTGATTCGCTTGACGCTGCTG	6420
GCGGAACGGCCCGCAATCGTGACTCGGCCAAAGGCGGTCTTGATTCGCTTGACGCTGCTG	3440
TTCAACCCTTCCAACGCCGTGACGGGCCCTCCGGACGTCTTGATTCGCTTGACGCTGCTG	3030
GTCTTGTCTCATTGCTACGTGGGTGTCCCCACTTCAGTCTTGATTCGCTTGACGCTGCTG	7890
CGTCCTAGTGATTGTCGCGTGGGTGCCATGAGGAAGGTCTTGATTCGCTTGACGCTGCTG	10400
CTGTGTCCTGTGGTAGACCCACTTGTTTTACCGCAGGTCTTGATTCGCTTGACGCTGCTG	4820
CAATAGCCGGGCTGGCACGCTACTAGAAGGCGGTTCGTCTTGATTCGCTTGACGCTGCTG	6030
TTACTCAGGAGATTGCACGTTGAAGCAGTACGTTGAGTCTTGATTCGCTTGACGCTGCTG	10700
CAGGGTATAGACCGCTGAGGCAAGTGCCGTTAATGGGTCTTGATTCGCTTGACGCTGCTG	3310
AAAATCCATTTTTAAAACGTGTGAATGTTTTCCCTGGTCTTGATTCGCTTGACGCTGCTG	11100
CCAATTGATGGTCTACACGTTGTTTCAAGTGCATACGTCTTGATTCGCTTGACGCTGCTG	11300
CATACCCAACCTTGTAACGTGGGTGAAGATATTTGTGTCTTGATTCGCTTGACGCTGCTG	10400
TGCGCAACAACTTGAGATGTGGGTGTATGTCTAGAAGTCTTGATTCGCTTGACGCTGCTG	4750
AAATTACTAAGTTGAGAAGTGGGTGACGCCGTATGAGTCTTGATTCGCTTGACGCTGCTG	3980
TGACCGGGTTGACAGTTCGTGACGGGTACTGTGGCGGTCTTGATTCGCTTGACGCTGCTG	4530

Further values, each from its own experiment
Substance	target	test	system	conditions	how to read	endpoint	result
PhoQ, residues 284 288 289 292 302 303 AGCYAI	PhoP, residues 12 14 15 18 19 GHCSL (Escherichia coli, UniProt P23836)	Sort-seq, item: YFP reporter	E. coli	PhoQ-PhoP variant library, together with: 10 µM Mg2+	relative to: high Mg2+ state, higher = stronger signaling	fold induction	12.9
